Assay results from different studies.
Parts stem from different laboratories: compare values within a part only.

Series 1
Target: Histone acetyltransferase KAT6A, winged helix 2, GST fusion (KAT6A, Homo sapiens, UniProt Q92794, residues 85-181)
Method: protein binding microarray
Form: double-stranded DNA, one strand shown
Matrix: in vitro
Concentration: not given
Notes: 8-mer, flanks averaged, mean of 2 arrays, mostly near background
Baseline: not given
Direction: higher = stronger binding
Target sequence (chain): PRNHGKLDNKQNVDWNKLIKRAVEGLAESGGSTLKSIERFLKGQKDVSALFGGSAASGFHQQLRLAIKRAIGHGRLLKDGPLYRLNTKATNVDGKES
Strand	E-score
GCTGTCAC	-0.0106
AAAGGTAA	-0.0808
AACCTCCA	-0.116
TCATAGGA	-0.166
CTGACTGA	-0.139
CCAGCATA	-0.00543

Series 2
Target: Centromere-binding protein 1, full length, N-terminal tag (CBF1, Saccharomyces cerevisiae, UniProt P17106, residues 1-351)
Sequence of UniProt P17106 (whole entry, looked up): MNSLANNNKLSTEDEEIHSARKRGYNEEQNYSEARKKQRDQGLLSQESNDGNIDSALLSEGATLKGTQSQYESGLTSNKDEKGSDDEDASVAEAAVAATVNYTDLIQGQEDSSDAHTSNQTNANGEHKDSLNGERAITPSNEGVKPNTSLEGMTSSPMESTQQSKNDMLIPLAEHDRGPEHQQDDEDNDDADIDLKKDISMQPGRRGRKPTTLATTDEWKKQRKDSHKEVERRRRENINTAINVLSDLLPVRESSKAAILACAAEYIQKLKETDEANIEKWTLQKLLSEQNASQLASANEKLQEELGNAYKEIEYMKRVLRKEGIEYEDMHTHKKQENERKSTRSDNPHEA
Method: protein-binding microarray
Form: double-stranded DNA, one strand shown
Matrix: in vitro
Concentration: 0.8 µM
Notes: whole 60-bp probe, no competitor
Direction: higher = stronger binding
All sequences stand within: … GTCTTGATTCGCTTGACGCTGCTG
Strand	fluorescence intensity [a.u.]
GAATATTAAAAATATCAGCAGAGACGTAAAAGTTAG	534
GAATCCTGTTTATCCCAGATCACGTTTGTTCCATAG	2050
GAACTTGTACCAGTGAACGTGTGTTTATGCAAATAG	596
TGTACGAAGCTATAGCACGTGTTTATAGTAGTTAGG	10900
GAAGCTTACATAGGTGGTGGCACTACCATAATATAG	510
GAATGCTTTCATTTCGGCGTGATGGTACGGCACTAG	574
GAATAAAAAACCAAATAGCTGATGTATGTATATTAG	493

Series 3
Target: Sal-like protein 4, full length isoform B (SALL4, Homo sapiens, UniProt Q9UJQ4-2, residues 1-616)
Method: universal PBM
Form: double-stranded DNA, one strand shown
Matrix: in vitro
Concentration: not given
Notes: 8-mer, flanks averaged, mean of replicates
Direction: higher = stronger binding
Strand	E-score
ATCCTCCG	-0.238
ACCTCGCA	-0.114
GGAAGACC	-0.327
TACGGCTA	-0.00286
CAGTTCAG	-0.143
GCAGGCGC	-0.307

Mixed results
Substance	target	test	test system	conditions	scale	measurement	value
PhoQ, residues 284 288 289 292 302 303 SLSVQF	PhoP, residues 12 14 15 18 19 NQAHL (Escherichia coli, UniProt P23836)	Sort-seq, measured: YFP reporter	E. coli	PhoQ-PhoP variant library, added: 10 µM Mg2+	baseline: high Mg2+ state, higher = stronger signaling	fold induction	9.96

Some of these lines once more (series 1):
Strand	E-score
TCATAGGA	-0.166
CTGACTGA	-0.139
